Experimental data collected from several papers.
Numbered parts are unrelated; each lists some results of a single study. Substitutions count along the parent as printed.

Series 1
Target: RNA binding protein fox-1 homolog 2, RRM domain, GST-SBP tag (RBFOX2, Homo sapiens, UniProt O43251-10, residues 100-194)
Technique: RNA Bind-n-Seq
Molecule type: RNA
Medium: in vitro
Concentration: 365 nM
Setting: natural RNA segment, single round, ends assumed
Reference: no-protein control
Direction: higher = stronger binding
Shared flanks, not repeated: GGGAGUUCUACAGUCCGACGAUC … UGGAAUUCUCGGGUGCCAA
Construct (chain): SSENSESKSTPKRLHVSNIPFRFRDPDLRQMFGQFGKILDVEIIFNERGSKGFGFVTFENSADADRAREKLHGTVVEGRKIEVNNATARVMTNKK
| Oligonucleotide | RBNS enrichment (R) |
| --- | --- |
| AUACCUCCGUCUGACUCCUCAUUCUUCUGCAUUCUUGUACACUCCAUCAGUCAUCUAACAACAAAGAUACAUUAUUCACUCAUUGUCACCUCUGAGGCUUCUAUCAUAAC | 1.78 |
| AAUCUUUUACAUGGCCUUGGUCUAGAGGAGGCAGGCUUUUAGAAUCAUGUUUUGUUAAUCCGCUUCACUAAAUUGGACCUUCACAUAUCUAAAAAGCUCUGAAGUGUUUG | 0.579 |
| UGUUUCCAGCUCGUCCACAAGCUCAUCGAUUUUCUUUAGUAGAUUACCGGUGUAAAUACCCAGUGUGCUUAUGAGUCAGUUAGUAGACGUCUUCAUUCAUUGGAGUAACU | 0.243 |
| GAUGCUCCGAGAGCUACUGCAUCUGGGACUGUGUCCUUUCUCUGGGAGGCAGUCUUGUCACCUCCCAUCCAACAGUUCACAAACGGCUCAGUUCCUUCAUUCAGAUGGUU | 0.696 |
| CUCCGAAACAAGUAGAAAAGUGCUGUUUGAGGGAUUUUAUUAAAUCUUUUUUUAAUGGAAUGUGGUACAAAUUGUUCAUGUUACCAAAGCAAUAUUUCCCUGGAAUUUAA | 0.716 |
| GUAUGAUAAAGAUGAUCUAAUUUGUGAAUGCAUAUGUAUGUGUGGUUACUUUUUAUAAUGUGAAAUAAUGAAUAAUGAAUUUACUCAAAAUAAAACAUAGGUUAAUGAGA | 1.88 |
| UGGAACAGAGUCCCCAGAACUCAUGUGGCCAUUUCCGCCAGCAUCACUCCCCGGUGCCUAUGGGGUCCCGGUGUACCUAAAGGGAGAAGGACCCCAUGUGCUAGCCAGAA | 0.323 |
| GAAGCCCAUGAACCAUCGCUGAGGUUCUGAUACAACAUAGAGUUUUUUCCAAGGAGUGAAUGUGGUUUAAUUACUGGACUCUCUUAGCACAGGAAGGUGGAAACAAAAUG | 0.565 |

Series 2
Target: NFE2, bZIP domain (human)
Technique: DHFR protein complementation
Medium: yeast
Setting: single substitutions, most at no-binding floor
Reference: wild-type JUN-FOS pair
Direction: higher = stronger binding
Parent: JUN, bZIP domain (human); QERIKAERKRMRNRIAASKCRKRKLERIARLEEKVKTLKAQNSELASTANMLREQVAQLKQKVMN; partner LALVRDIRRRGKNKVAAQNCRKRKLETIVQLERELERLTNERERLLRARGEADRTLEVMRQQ
| Variant | binding fitness |
| --- | --- |
| A40H | -1.41 natural log |
| L45F | -1.44 natural log |
| N42K | -1.45 natural log |
| T48W | -1.43 natural log |
| A46G | -1.45 natural log |
| A40G | -1.45 natural log |
| T48F | -1.57 natural log |
| K34T | -1.37 natural log |
| E44C | -1.23 natural log |
| A57T | -1.56 natural log |
| A46N | -1.51 natural log |
| E32W | -1.56 natural log |
| A40D | -1.49 natural log |
| K39S | -1.48 natural log |
| A40Q | -1.18 natural log |
| T37Y | -1.56 natural log |
| E32S | -1.27 natural log |
| M51N | -1.52 natural log |
| L38Y | -1.53 natural log |
| T48S | -1.35 natural log |
| A49S | -1.49 natural log |
| E44T | -1.56 natural log |
| A46C | -1.59 natural log |
| A49M | -1.46 natural log |
| A29G | -1.4 natural log |

Series 3
Target: RING finger protein unkempt homolog, zinc fingers 1-6, GST-SBP tag (UNK, Homo sapiens, UniProt Q9C0B0, residues 30-357)
Chain of UniProt Q9C0B0 (30-357, looked up): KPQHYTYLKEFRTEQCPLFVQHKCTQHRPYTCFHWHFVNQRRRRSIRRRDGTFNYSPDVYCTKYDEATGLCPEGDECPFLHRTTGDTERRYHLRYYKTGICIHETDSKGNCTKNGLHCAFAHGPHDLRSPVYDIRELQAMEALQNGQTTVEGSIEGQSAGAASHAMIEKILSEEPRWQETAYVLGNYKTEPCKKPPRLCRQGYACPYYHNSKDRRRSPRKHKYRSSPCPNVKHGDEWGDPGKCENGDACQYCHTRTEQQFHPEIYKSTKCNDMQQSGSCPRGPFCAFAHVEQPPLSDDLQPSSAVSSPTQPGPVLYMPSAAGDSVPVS
Technique: RNA Bind-n-Seq
Molecule type: RNA
Medium: in vitro
Concentration: not given
Setting: RNA with constant flanks, human and mouse sites, ends assumed
Reference: input RNA pool
Direction: higher = stronger binding
Shared flanks, not repeated: GGGAGUUCUACAGUCCGACGAUC … CAACAGAGGAUUGAGCAUCA
| Oligonucleotide | bound/input enrichment |
| --- | --- |
| UACUUAAAUGAAAUAAAACCUCCCAUCAUACACUAUGACCUCAAACCAGGUAAUAUCCUUUUAGUAAAUGGUACAGCAUGUGGAGAGAUAAAAAUUACAGAUUUUGGUCUUUCCAAGAUC | 0.477 ratio |
| CCCAACUCCUCUUCAGGACUCACUCCUCUCAGCACCACCGCGCCGAGCAUGUUCUCUGCUGACUUUCUAGACCCACAGGACCUACCGCUGCCAUGGGACUAACGUCACAGAUUUCUUUUC | 0.282 ratio |
| ACCACUGAGAGCAGUCAAUCCUUUGUUGCAGUACAUCACAGUGAGGAAGGCAGGGAUACCUUAGGAAGCAGUACAAAUCUUCAUAAUCACUCUGAGGGAGAGUAUAUUCCAGGAGCUUGU | 0.924 ratio |
| AGAGGGUAUGUCUCCUGUGCCCUCGGAUGCCCCUACGAGGGGAAGGUCUCCCCGGCUAAAGUUGCUGAGGUUGCCAAGAAGUUGUACUCGAUGGGCUGCUAUGAGAUCUCCCUUGGGGAC | 0.18 ratio |
| GUUCGCCUGUAUCGCAAAGCAUUAGAAGUCUUCCCAGAGUUUGCUGCUGCACAUUCCAAUUUAGCAAGUGUACUGCAACAGCAGGGCAAGCUGCAGGAAGCACUGAUGCACUAUAAAGAA | 0.291 ratio |
| GAUGUUCUGCCUACUCAGAUCUAUCCUCUCCCCAAGCAGCAGAACCUUCCCAAGAGACCUACUAGUUUGCCUUUGAACACCAAAAAUUCAACAAAAGAGCCCCGGCUAAAAUUUGGCAGC | 0.59 ratio |
| GUGAAGUACGCGUAUUAUGACACUGAACGCAUUGGAGUUGACCUCAUCAUGAAGACGUGUUUUAGCCCCAACCGGGUGAUUGGACUCUCAAGUGACUUACAACAAGUGGGAGGGGCCUCA | 0.119 ratio |
| AAAUUGUGCAGCUAUUUUAAAAGUUGUAUAUAUAAUGUGUGUAAAAACUGUAUAAAAAGGGGGGGGGGACAAAGGCAUUGCUUUGUUCUACUUCAAUUUCUUAAAAAUCACUACAUGGUA | 0.224 ratio |

Series 4
Target: CCNB3, cyclin fold, Cln2 fusion (human)
Technique: yeast growth competition, sequencing
Medium: yeast
Setting: strong parent motif
Reference: not given
Direction: higher = stronger binding
Parent: RBL2 docking peptide (human); STTRRRLFVENDS
| Variant | normalised enrichment score |
| --- | --- |
| D12K | 0.651 |
| E10P | 1.31 |
| D12A | 0.461 |
| T3Y | 0.819 |
| F8E | 0.108 |
| S1D | 1.03 |
| E10T | 0.0533 |
| T3A | 1.79 |
| R4I | 0.443 |
| S1A | 0.84 |
| R6Y | 0.163 |
| V9L | 0.706 |
| N11F | 0.601 |
| N11Q | 1.19 |
| T2H | 1.24 |
| L7P | 0.411 |
| R5Y | 0.234 |
| D12Q | 0.673 |
| S13T | 0.781 |
| R5F | 0.192 |
| V9C | 1.79 |
| V9F | 1.16 |
| T2E | 1.18 |
| R4N | -0.495 |
| V9E | 0.742 |

Mixed results
| Molecule | target | assay | system | conditions | scale | quantity | result |
| --- | --- | --- | --- | --- | --- | --- | --- |
| PhoQ, residues 284 288 289 292 302 303 SSTLSG | PhoP, residues 12 14 15 18 19 QWHVF (Escherichia coli, UniProt P23836) | Sort-seq, item: YFP reporter | E. coli | PhoQ-PhoP variant library, added: 10 µM Mg2+ | reference: high Mg2+ state, higher = stronger signaling | fold induction | 2.31 |

Excerpt of the above (series 4):
| Variant | normalised enrichment score |
| --- | --- |
| R4I | 0.443 |
| S1A | 0.84 |
| R6Y | 0.163 |
| V9L | 0.706 |
| N11F | 0.601 |
